Measured values of several laboratories.
Compare with care: the assays were run in different laboratories. ± marks the error that the study gave.

COc1ccc(F)cc1S(=O)(=O)Nc1cnc2c(c1)C(=O)NCCO2
Cmax (male C57BL/6 mouse, plasma; oral, 0.1 mg/kg, single dose): 16.5 ng/mL

[2H]C([2H])([2H])C([2H])([2H])C([2H])([2H])OC(C(=O)OC1CCNCC1)(c1ccccc1)c1ccccc1
Cmax (healthy Japanese male subjects, plasma; oral, 8 mg once daily, day 1, fed, mean): 14.3 ng/mL

CCCCCCCC(=O)OC[C@H](NC(=O)[C@H](CO)NC(=O)CN)C(=O)N[C@@H](Cc1ccccc1)C(=O)N[C@@H](CC(C)C)C(=O)N[C@@H](CO)C(=O)N1CCC[C@H]1C(=O)N[C@@H](CCC(=O)O)C(=O)N[C@@H](Cc1cnc[nH]1)C(=O)N[C@@H](CCC(N)=O)C(=O)N[C@@H](CCCNC(=N)N)C(=O)N[C@H](C(=O)N[C@@H](CCC(N)=O)C(=O)N[C@@H](CCC(N)=O)C(=O)N[C@@H](CCCNC(=N)N)C(=O)N[C@@H](CCCCN)C(=O)N[C@@H](CCC(=O)O)C(=O)N[C@@H](CO)C(=O)N[C@@H](CCCCN)C(=O)N[C@@H](CCCCN)C(=O)N1CCC[C@H]1C(=O)N1CCC[C@H]1C(=O)N[C@@H](C)C(=O)N[C@@H](CCCCN)C(=O)N[C@@H](CC(C)C)C(=O)N[C@@H](CCC(N)=O)C(=O)N1CCC[C@H]1C(=O)N[C@@H](CCCNC(=N)N)C(=O)O)C(C)C
Cmax (ELISA; healthy humans, both sexes, plasma; intravenous bolus then infusion, 0.28 µg/kg bolus then 1 µg/kg/h, 210 min): 1.93 ± 1.3 ng/mL

CC(=CCC(O)C(C)=Cc1csc(C)n1)CC=CC(C)C(O)C(C)C(=O)C(C)(C)C(O)CC(=O)O (centres unmarked)
Cmax (human, plasma; intravenous infusion, 27 mg/m2 KOS-1584, 3 h infusion, cycle 1): 14.3 ± 3.64 ng/mL

CCCCCCCCCCCCCC(=O)N[C@@H](Cc1ccccc1)C(=O)N[C@@H](CCC(=O)O)C(=O)N[C@@H](CCC(=O)O)C(=O)N[C@@H](CCC(=O)O)C(=O)N[C@@H](CCCNC(=N)N)C(=O)N[C@@H](CC(C)C)C(=O)O
Cmax (whole blood; intravenous, 5 mg/kg, HLPN formulation): 33400 ng/mL

CCc1c2c(nc3ccc(OC4OC(C(=O)O)C(O)C(O)C4O)cc13)-c1cc3c(c(=O)n1C2)COC(=O)C3(O)CC (centres unmarked)
Cmax (human patients, plasma; intravenous, 100 mg/m^2 of parent drug): 113 ng/mL

CC(C)C[C@@H](NC(=O)[C@@H](Cc1ccccc1)NC(=O)[C@H](N)Cc1ccccc1)C(=O)N[C@H](CCCCN)C(=O)N1CCC(N)(C(=O)O)CC1
Cmax (human, plasma; intravenous, 15 µg/kg): 169 ng/mL

CC[C@H](C)C(=O)N1CCC(NC(=O)Nc2ccc(OC(F)(F)F)c(F)c2)CC1
Cmax (human; oral, 8 mg, fed, geometric mean): 55.6 ng/mL

Repeated from above:
CCc1c2c(nc3ccc(OC4OC(C(=O)O)C(O)C(O)C4O)cc13)-c1cc3c(c(=O)n1C2)COC(=O)C3(O)CC (centres unmarked)
Cmax (human patients, plasma; intravenous, 100 mg/m^2 of parent drug): 113 ng/mL
